Experimental data of several laboratories.
Compare with care: the assays were run in different laboratories. Several values in a cell are separate wells, animals, samples, runs or records. Numbers after ± are the reported error.

Cc1cc(Cl)cc(-c2ccnc3cc(CN4C(=O)C5C(C4=O)C5(C)C)sc23)c1C[C@@H]1CNCCO1 (stereo partly drawn) — viable cells (annexin V-/PI-) (CHP-212 resistant cells (pooled); annexin V-PI flow cytometry; 1 µM, 48 h): 78.9% and 84.6% and 90.9%
CCC(=CCc1c(O)cc2c(c1O)C(=O)CC(c1cccc(OC)c1O)O2)CC (stereo not drawn) — inhibition (HeLa; cell growth or viability, MTT; 100 µM, 48 h): 100%
O=S(=O)(N[C@H]1CCO[C@@H](C2c3ccccc3CCc3ccccc32)C1)c1ccc(OC(F)(F)F)cc1 — phosphorylation level (D425; immunoblot, measured: Bad; concentration not given, 24 h): decreased
N#C[C@@H]1CCCN1C(=O)CNC(=O)c1ccnc2ccc(OCCCN3CCN(C(=O)CCc4ccc5c(c4)CN4CCN6CC(=O)[O][68Ga-]([O]C(=O)C4)([O]5)[O]c4ccc(CCC(=O)N5CCN(CCCOc7ccc8nccc(C(=O)NCC(=O)N9CCC[C@H]9C#N)c8c7)CC5)cc4C6)CC3)cc12 — internalized fraction (HT1080 cells expressing human FAP; 120 min, 37 °C): 80.9 ± 1.7%
CCC(=CCc1c(O)cc2c(c1O)C(=O)CC(c1cc(O)ccc1OC)O2)CC (stereo not drawn) — inhibition (HeLa; cell growth or viability, MTT; 50 µM, 48 h): 71.4%
CCN(C(=O)c1cc(F)ccc1Oc1nncnc1N1CCC2(C1)CN([C@H](CCCN(C)CCOC)C(C)C)C2)C(C)C — GI50 (22Rv1; cell growth or viability; 7 days): > 10 µM
Cc1ncsc1-c1ccc(C(C)NC(=O)C2CC(O)CN2C(=O)C(NC(=O)CCCCCCCCCCN2CCCC(Nc3ncc(Cl)c(Nc4ccccc4S(=O)(=O)C(C)C)n3)C2)C(C)(C)C)cc1 (stereo not drawn) — log2 fold change (22Rv1; RNA-seq, measured: NLGN3 mRNA; concentration not given; reference: DMSO): -2.24
CC(=O)N[C@@H](CC(=O)O)C(=O)N[C@@H](Cc1ccc(I)cc1)C(=O)N[C@@H](C)C(=O)N[C@@H](CC(=O)O)C(=O)COC(=O)c1c(C)cccc1C — cell lysis (THP-1 cells, LPS-primed; pyroptosis, LDH release; 25 µM, LPS 1 µg/mL, 4 h, together with: nigericin 5 µM, 2 h): 48.1% and 35.2%
CC(C)c1ccc(N(C)c2ccc3c(c2)OCC[C@H]3CNc2cnccc2C(=O)O)cc1 — IC50 (NUGC-3; cell viability, CellTiter-Glo; 7 days): 0.00772 µM
C[C@@H]1CC[C@@H]([C@@](O)(CNCc2ccccc2F)COCc2ccccc2)[C@H](OCc2ccccc2)C1 — inhibition (HeLa; cell growth or viability, MTT; 30 µM, 72 h): 96.2%
CNS(=O)(=O)Nc1nccc(Cc2c(C)c3ccc(Oc4ncccc4F)cc3oc2=O)c1F — IC50 (OE33; cell viability; 7 days): 0.11 µM
CCN(CC)CC(=O)Nc1cccc(-n2cc(-c3ccc4ccc(-c5cn(-c6cccc(NC(=O)CN(CC)CC)c6)nn5)cc4c3)nn2)c1 — fold regulation (RCC4; PCR array, measured: EGF; 5 x IC50, 6 h, normoxia; reference: untreated): 1.59
COc1ccc(NC(=O)c2ccc3[nH]c(-c4ccc(N(C)C)cc4)nc3c2)cn1 — extracellular HMGB1 (HCT-116; concentration not given, 6 h, unit not given; reference: DMSO): 5.38 and 3.8 and 4.58
COc1ccc2c(c1)c(CC(=O)[Se]CC(=O)Nc1cccc(C(F)(F)F)c1)c(C)n2C(=O)c1ccc(Cl)cc1 — TGI (NCI60 NSCLC subpanel mean; cell growth): 3.56 µM
CN1CCCNC(=O)c2cccc(c2)C(=O)NCCCN(C)CCCNc2cccc3c2C(=O)c2cccc(c2C3=O)NCCC1 — log2 fold change (SAS; RNA-Seq, measured: NOC3L mRNA; 1 µM, 6 h; reference: untreated cells): -0.725
C=CC(=O)N1CCCC(n2c(=O)c3ncccc3n(Cc3ccc(Oc4ccccc4)cc3)c2=O)C1 (stereo not drawn) — late apoptotic cells (OCI-LY19; annexin V/PI flow cytometry; 100 nM, 72 h): 13.2%
CC12CCCC(NS(=O)(=O)c3ccc(O)cc3)(C1)C1CC(C)(C)C1CC2 (stereo not drawn) — inhibition (HT-29; cell growth or viability, CCK-8; 10 µM): < 50%
O=C(CN1CCOCC1)Nc1ccc([C@H]2[C@@H](F)[C@@H](F)C[C@@H](F)[C@H]2F)cc1 — hepatic clearance (liver microsome stability; dog liver microsomes; 1 µM): 10 mL/min/kg
COc1ccccc1-c1ccncc1C(=O)Nc1nnc(OCc2ccc(Cl)cc2)s1 — colony count (MDA-MB-231; 0.375 µM): 37 and 27 and 33 and 23
CC12CCCC(n3cc(C(=O)N4CCC(O)CC4)nn3)(C1)C1CC(C)(C)C1CC2 (stereo not drawn) — inhibition (HT-29; cell growth or viability, CCK-8; 50 µM): 72.9%
c1cc(C2CCCCC2)ccc1-c1ccc(N2CCCC2)nc1 — hepatic clearance (liver microsome stability; human liver microsomes; 1 µM, without NADPH): 7 mL/min/kg
